Published values of several laboratories.
Compare with care: the assays were run in different laboratories. “And” joins repeats or separate records; there may be more than shown. ± marks the error that the study gave. Converted amounts (≈) assume the structure as drawn.
Spike glycoprotein: Spike glycoprotein (Severe acute respiratory syndrome coronavirus 2, UniProt P0DTC2)
Spike glycoprotein RBD: Spike glycoprotein, RBD (Severe acute respiratory syndrome coronavirus 2, UniProt P0DTC2)
UniProt P41143, sequence (whole entry, looked up): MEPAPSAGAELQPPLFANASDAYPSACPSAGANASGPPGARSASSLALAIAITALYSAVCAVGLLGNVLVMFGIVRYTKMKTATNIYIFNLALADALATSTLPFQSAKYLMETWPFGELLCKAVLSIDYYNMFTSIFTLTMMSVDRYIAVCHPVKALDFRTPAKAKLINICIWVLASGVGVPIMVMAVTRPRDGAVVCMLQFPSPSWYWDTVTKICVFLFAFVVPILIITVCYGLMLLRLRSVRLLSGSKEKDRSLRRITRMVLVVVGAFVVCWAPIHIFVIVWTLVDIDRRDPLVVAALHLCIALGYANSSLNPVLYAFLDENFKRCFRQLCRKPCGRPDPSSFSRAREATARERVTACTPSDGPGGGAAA
UniProt P41145, sequence (whole entry, looked up): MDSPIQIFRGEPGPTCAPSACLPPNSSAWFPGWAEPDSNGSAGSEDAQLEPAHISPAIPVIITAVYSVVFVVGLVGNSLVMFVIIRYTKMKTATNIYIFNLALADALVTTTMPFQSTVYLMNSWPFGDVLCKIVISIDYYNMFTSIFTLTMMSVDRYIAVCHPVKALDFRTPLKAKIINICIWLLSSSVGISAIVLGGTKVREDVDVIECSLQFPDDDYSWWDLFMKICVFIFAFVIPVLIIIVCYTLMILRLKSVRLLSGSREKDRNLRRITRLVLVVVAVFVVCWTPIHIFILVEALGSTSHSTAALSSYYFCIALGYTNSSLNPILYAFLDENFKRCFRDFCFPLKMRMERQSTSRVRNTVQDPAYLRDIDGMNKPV

`CC[C@H](C)[C@H](NC(=O)[C@H](CCC(=O)O)NC(=O)[C@H](CC(=O)O)NC(=O)[C@H](CO)NC(=O)[C@@H](NC(=O)[C@H](CCCNC(=N)N)NC(=O)[C@H](CCSC)NC(=O)[C@H](CO)NC(=O)[C@H](C)NC(=O)[C@H](CCC(=O)O)NC(=O)[C@H](C)NC(=O)[C@H](Cc1c[nH]cn1)NC(=O)CNC(=O)[C@H](CC(C)C)NC(=O)[C@H](CCC(=O)O)NC(=O)[C@H](CC(=O)O)NC(=O)[C@H](CC(C)C)NC(=O)[C@H](CC(C)C)NC(=O)[C@H](CCCNC(=N)N)NC(=O)[C@H](CCSC)NC(=O)[C@H](CCC(=O)O)NC(=O)[C@H](CCC(=O)O)NC(=O)[C@H](Cc1ccc(O)cc1)NC(=O)[C@@H](NC(=O)[C@H](CCCCN)NC(=O)[C@H](CCC(N)=O)NC(=O)[C@H](CC(C)C)NC(=O)[C@@H](NC(=O)[C@H](Cc1c[nH]c2ccccc12)NC(=O)[C@H](CCC(=O)O)NC(=O)[C@H](CCCCN)NC(=O)[C@@H](N)CC(=O)O)[C@@H](C)CC)[C@@H](C)CC)C(C)C)C(=O)N[C@@H](Cc1ccc(O)cc1)C(=O)N[C@@H](CCC(=O)O)C(=O)N[C@@H](Cc1ccccc1)C(=O)N[C@@H](CCSC)C(=O)N[C@@H](CCCCN)C(=O)N[C@@H](CCCCN)C(N)=O` gave a Kd of 1.9 nM (Spike glycoprotein; binding, SPR).
The Kd of `CC[C@H](C)[C@H](NC(=O)[C@H](Cc1c[nH]c2ccccc12)NC(=O)[C@H](Cc1ccccc1)NC(=O)[C@@H](N)CC(N)=O)C(=O)N[C@@H](CO)C(=O)N1CCC[C@H]1C(=O)N[C@@H](CCCCN)C(=O)N[C@@H](CC(C)C)C(=O)N[C@@H](C)C(=O)N[C@@H](Cc1ccccc1)C(=O)N[C@@H](C)C(=O)N[C@@H](CC(C)C)C(=O)NCC(=O)NCC(=O)NCC(=O)N[C@@H](CO)C(=O)O` is reported as 561000 nM (Spike glycoprotein, S2 subunit (Severe acute respiratory syndrome coronavirus 2, UniProt P0DTC2); binding).
For `CC[C@H](C)[C@H](NC(=O)[C@H](CCCCN)NC(=O)[C@H](CCCCN)NC(=O)[C@H](CC(C)C)NC(=O)[C@H](Cc1c[nH]c2ccccc12)NC(=O)CN)C(=O)NCC(=O)N[C@@H](CCCCN)C(=O)N[C@@H](CCCCN)C(=O)N[C@H](C(=O)N[C@@H](CCC(=O)O)C(=O)N[C@@H](CCCNC(=N)N)C(=O)N[C@H](C(=O)NCC(=O)N[C@@H](CCC(N)=O)C(=O)N[C@@H](Cc1c[nH]cn1)C(=O)N[C@H](C(=O)N[C@@H](CCCNC(=N)N)C(=O)N[C@@H](CC(=O)O)C(=O)N[C@@H](C)C(=O)N[C@H](C(=O)N[C@H](C(=O)N[C@@H](CCC(N)=O)C(=O)N[C@H](C(=O)N[C@H](C(=O)NCC(=O)N[C@H](C(=O)N[C@@H](C)C(=O)N[C@@H](CCC(N)=O)C(=O)N[C@@H](CCC(N)=O)C(=O)N[C@@H](C)C(=O)N[C@@H](C)C(=O)N[C@@H](CC(N)=O)C(=O)N[C@H](C(=O)N[C@@H](C)C(=O)N[C@@H](C)C(=O)N[C@H](C(=O)N[C@@H](CC(C)C)C(=O)N[C@@H](CCCCN)C(N)=O)[C@@H](C)O)C(C)C)C(C)C)[C@@H](C)CC)[C@@H](C)O)[C@@H](C)CC)[C@@H](C)O)[C@@H](C)O)C(C)C)[C@@H](C)CC`, the MIC was 4 µg/mL (≈ 0.952 µM) (Escherichia coli; isolate RKI 6 A-6, CAMHB).
The Ki of `CC(C)C[C@H](NC(=O)[C@H](CO[C@@H]1O[C@H](CO)[C@@H](O[C@@H]2O[C@H](CO)[C@H](O)[C@H](O)[C@H]2O)[C@H](O)[C@H]1O)NC(=O)[C@H](CCCCN)NC(=O)[C@H](CC(C)C)NC(=O)[C@H](C)NC(=O)[C@H](CCCCN)NC(=O)[C@H](CCC(=O)O)NC(=O)CNC(=O)[C@H](CC(C)C)NC(=O)[C@H](CC(N)=O)NC(=O)[C@@H]1CCCN1C(=O)[C@H](CC(C)C)NC(=O)[C@H](Cc1ccccc1)NC(=O)CNC(=O)[C@H](NC(=O)[C@@H](N)Cc1ccc(O)cc1)[C@H](C)O)C(N)=O` is reported as 8.2 nM (OPRD1 (Homo sapiens, UniProt P41143); ligand displacement, radioligand; pH 7.5, cell membranes).
`COc1ccc(-c2oc3c(CC=C(C)C)c(O[C@@H]4O[C@H](CO)[C@@H](O)[C@H](O)[C@H]4O)cc(O)c3c(=O)c2O[C@@H]2O[C@@H](C)[C@H](O)[C@@H](O)[C@H]2O[C@@H]2O[C@@H](C)[C@H](O)[C@@H](O)[C@H]2O)cc1` gave a Kd of 2910 nM and 2860 nM (Spike glycoprotein, S1 subunit (Severe acute respiratory syndrome coronavirus 2, UniProt P0DTC2); binding).
`CC(=O)N[C@@H](CCCNC(=N)N)C(=O)N[C@@H](CC(=O)O)C(=O)N[C@@H](CC(=O)O)C(=O)N[C@@H](CCC(=O)O)C(=O)N[C@H]1CCC[C@@H]1C(=O)N[C@@H](CCCNC(=N)N)C(=O)N[C@@H](Cc1c[nH]c2ccccc12)C(=O)N[C@@H](CC(C)C)C(=O)N[C@H]1CCC[C@@H]1C(=O)N[C@H](C(=O)N[C@@H](CC(=O)O)C(=O)N[C@H]1CCC[C@@H]1C(=O)N[C@H](C(=O)N[C@@H](Cc1ccc(O)cc1)C(=O)N[C@@H](CCC(=O)O)C(=O)N[C@H]1CCC[C@@H]1C(=O)N[C@@H](Cc1c[nH]c2ccccc12)C(=O)N[C@@H](Cc1c[nH]cn1)C(N)=O)C(C)C)[C@@H](C)O` has a Kd of 650 nM (Spike glycoprotein RBD).
`CC(C)C[C@H](NC(=O)[C@H](CO)NC(=O)[C@H](CO)NC(=O)[C@H](CCC(N)=O)NC(=O)[C@H](Cc1ccc(O)cc1)NC(=O)[C@H](Cc1ccccc1)NC(=O)[C@H](CC(C)C)NC(=O)[C@H](CC(=O)O)NC(=O)[C@@H](N)CCC(=O)O)C(=O)N[C@@H](C)C(=O)O` gave a Kd of 45.9 nM (Spike glycoprotein; binding).
Under “serum enzyme activity”, `CCCCCCCCCCCCCCCC(=O)N[C@@H](CCC(=O)NCCOCCOCCC(=O)NCCOCCOCCC(=O)NCCCC[C@H](NC(=O)[C@H](CC(=O)O)NC(=O)[C@H](CC(C)C)NC(=O)[C@H](Cc1ccc(O)cc1)NC(=O)[C@H](CCCCN)NC(=O)[C@H](CO)NC(=O)[C@H](Cc1ccc(O)cc1)NC(=O)[C@H](CC(=O)O)NC(=O)[C@H](CO)NC(=O)[C@@H](NC(=O)[C@H](Cc1ccccc1)NC(=O)[C@@H](NC(=O)CNC(=O)[C@H](CCC(N)=O)NC(=O)[C@@H](CO)NC(=O)[C@@H](N)Cc1c[nH]cn1)[C@@H](C)O)[C@@H](C)O)C(=O)N[C@@H](CCCNC(=N)N)C(=O)N[C@@H](CCCNC(=N)N)C(=O)N[C@@H](C)C(=O)N[C@@H](CCC(N)=O)C(=O)N[C@@H](CC(=O)O)C(=O)N[C@@H](Cc1ccccc1)C(=O)N[C@H](C(=O)N[C@@H](CCC(N)=O)C(=O)N[C@@H](Cc1c[nH]c2ccccc12)C(=O)N[C@@H](CC(C)C)C(=O)N[C@@H](CC(C)C)C(=O)N[C@@H](CC(N)=O)C(=O)N[C@H](C(=O)NCC(=O)NCC(=O)N1CCC[C@H]1C(=O)N[C@@H](CO)C(=O)N[C@@H](CO)C(=O)NCC(=O)N[C@@H](C)C(=O)N1CCC[C@H]1C(=O)N1CCC[C@H]1C(=O)N1CCC[C@H]1C(=O)N[C@@H](CO)C(N)=O)[C@@H](C)O)C(C)C)C(=O)O` is recorded as 260 ± 65.2 U/L (refers to: ALP; rhesus monkey, female; subcutaneous, 60 µg/kg once daily, 28 days).
The Kd of `CC(C)C[C@H](NC(=O)[C@H](Cc1c[nH]c2ccccc12)NC(=O)[C@H](CCCNC(=N)N)NC(=O)[C@H]1CCC[C@@H]1NC(=O)[C@H](CCC(=O)O)NC(=O)[C@H](CC(=O)O)NC(=O)[C@H](CC(=O)O)NC(=O)[C@@H](N)CC(N)=O)C(=O)N[C@H]1CCC[C@@H]1C(=O)N[C@H](C(=O)N[C@@H](CC(=O)O)C(=O)N[C@H]1CCC[C@@H]1C(=O)N[C@H](C(=O)N[C@@H](Cc1ccc(O)cc1)C(=O)N[C@@H](CCCC(=O)O)C(=O)N[C@H]1CCC[C@@H]1C(=O)N[C@@H](Cc1c[nH]c2ccccc12)C(=O)N[C@@H](Cc1c[nH]cn1)C(N)=O)C(C)C)[C@@H](C)O` is reported as 6200 nM (Spike glycoprotein RBD).
The Kd of `CC[C@H](C)[C@H](NC(=O)[C@H](CCCCNC(=O)CN(CCNC(=O)CN(CCNC(=O)CN(CCNC(=O)CN(CCNC(=O)CN(CCNC(=O)[C@H](CCCNC(=N)N)NC(C)=O)C(=O)Cn1cc(C)c(=O)[nH]c1=O)C(=O)Cn1ccc(N)nc1=O)C(=O)Cn1cnc2c(=O)[nH]c(N)nc21)C(=O)Cn1cnc2c(=O)[nH]c(N)nc21)C(=O)Cn1ccc(N)nc1=O)NC(=O)[C@H](CC(=O)O)NC(=O)[C@H](CO)NC(=O)[C@H](C)NC(=O)[C@H](CCCNC(=N)N)NC(=O)[C@H](CCSC)NC(=O)[C@H](CO)NC(=O)[C@H](C)NC(=O)[C@H](CCC(=O)O)NC(=O)[C@H](C)NC(=O)[C@H](Cc1c[nH]cn1)NC(=O)CNC(=O)[C@H](CC(C)C)NC(=O)[C@H](CCC(=O)O)NC(=O)[C@H](CC(=O)O)NC(=O)[C@H](CC(C)C)NC(=O)[C@H](CC(C)C)NC(=O)[C@H](CCCNC(=N)N)NC(=O)[C@H](CSSC)NC(=O)[C@H](CCCC(=O)NCCN(CC(=O)NCCN(CC(=O)NCCN(CC(=O)NCCN(CC(=O)N[C@@H](CCCNC(=N)N)C(N)=O)C(=O)Cn1cnc2c(=O)[nH]c(N)nc21)C(=O)Cn1ccc(N)nc1=O)C(=O)Cn1ccc(N)nc1=O)C(=O)Cn1cnc2c(=O)[nH]c(N)nc21)NC(=O)[C@H](CCC(=O)O)NC(=O)[C@H](Cc1ccc(O)cc1)NC(=O)[C@@H](NC(=O)[C@H](CCCCN)NC(=O)[C@H](CCC(N)=O)NC(=O)[C@H](CC(C)C)NC(=O)[C@@H](NC(=O)[C@H](Cc1c[nH]c2ccccc12)NC(=O)[C@H](CCC(=O)O)NC(=O)[C@H](CCCCN)NC(=O)[C@H](CC(=O)O)NC(C)=O)[C@@H](C)CC)[C@@H](C)CC)C(=O)N[C@@H](Cc1ccc(O)cc1)C(=O)N[C@@H](CCC(=O)O)C(=O)N[C@@H](Cc1ccccc1)C(=O)N[C@@H](CCSC)C(=O)N[C@@H](CCCCN)C(=O)N[C@@H](CCCCN)C(N)=O` is reported as 0.22 nM (Spike glycoprotein; binding, SPR).
`CC(C)C[C@H](NC(=O)[C@H](CO)NC(=O)[C@H](CCCCN)NC(=O)[C@H](CC(C)C)NC(=O)CNC(=O)[C@H](CCCCN)NC(=O)[C@H](CCC(=O)O)NC(=O)CNC(=O)[C@H](CC(C)C)NC(=O)[C@H](CC(N)=O)NC(=O)[C@@H]1CCCN1C(=O)[C@H](CC(C)C)NC(=O)[C@H](Cc1ccccc1)NC(=O)CNC(=O)[C@H](NC(=O)[C@@H](N)Cc1ccc(O)cc1)[C@H](C)O)C(N)=O` has a Ki of 15 nM (OPRK1 (Homo sapiens, UniProt P41145); ligand displacement, radioligand; pH 7.5, cell membranes).
With `CNC(C)C1C(O)CC2(C)C3CCC4C(C)(C)C(NC)CCC45CC35CCC12C` (stereo not drawn) the Kd was 38700 nM (Spike glycoprotein; binding, BLI).

A few entries again:
`CC[C@H](C)[C@H](NC(=O)[C@H](CCC(=O)O)NC(=O)[C@H](CC(=O)O)NC(=O)[C@H](CO)NC(=O)[C@@H](NC(=O)[C@H](CCCNC(=N)N)NC(=O)[C@H](CCSC)NC(=O)[C@H](CO)NC(=O)[C@H](C)NC(=O)[C@H](CCC(=O)O)NC(=O)[C@H](C)NC(=O)[C@H](Cc1c[nH]cn1)NC(=O)CNC(=O)[C@H](CC(C)C)NC(=O)[C@H](CCC(=O)O)NC(=O)[C@H](CC(=O)O)NC(=O)[C@H](CC(C)C)NC(=O)[C@H](CC(C)C)NC(=O)[C@H](CCCNC(=N)N)NC(=O)[C@H](CCSC)NC(=O)[C@H](CCC(=O)O)NC(=O)[C@H](CCC(=O)O)NC(=O)[C@H](Cc1ccc(O)cc1)NC(=O)[C@@H](NC(=O)[C@H](CCCCN)NC(=O)[C@H](CCC(N)=O)NC(=O)[C@H](CC(C)C)NC(=O)[C@@H](NC(=O)[C@H](Cc1c[nH]c2ccccc12)NC(=O)[C@H](CCC(=O)O)NC(=O)[C@H](CCCCN)NC(=O)[C@@H](N)CC(=O)O)[C@@H](C)CC)[C@@H](C)CC)C(C)C)C(=O)N[C@@H](Cc1ccc(O)cc1)C(=O)N[C@@H](CCC(=O)O)C(=O)N[C@@H](Cc1ccccc1)C(=O)N[C@@H](CCSC)C(=O)N[C@@H](CCCCN)C(=O)N[C@@H](CCCCN)C(N)=O` gave a Kd of 1.9 nM (Spike glycoprotein; binding, SPR).
`CC(C)C[C@H](NC(=O)[C@H](CO)NC(=O)[C@H](CO)NC(=O)[C@H](CCC(N)=O)NC(=O)[C@H](Cc1ccc(O)cc1)NC(=O)[C@H](Cc1ccccc1)NC(=O)[C@H](CC(C)C)NC(=O)[C@H](CC(=O)O)NC(=O)[C@@H](N)CCC(=O)O)C(=O)N[C@@H](C)C(=O)O` gave a Kd of 45.9 nM (Spike glycoprotein; binding).
